Assay results collected from several papers.
Several values in a cell are separate wells, animals, samples, runs or records. ± marks the error that the study gave. Converted amounts (≈) assume the structure as drawn.
UniProt P62258, sequence (whole entry, looked up): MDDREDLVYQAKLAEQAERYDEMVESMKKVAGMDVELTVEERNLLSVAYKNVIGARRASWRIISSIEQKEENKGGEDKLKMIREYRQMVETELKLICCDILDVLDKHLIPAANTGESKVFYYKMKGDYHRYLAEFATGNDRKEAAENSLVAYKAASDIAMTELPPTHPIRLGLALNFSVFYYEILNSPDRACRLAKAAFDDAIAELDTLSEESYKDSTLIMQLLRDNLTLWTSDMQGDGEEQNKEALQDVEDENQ

CN1CCN(S(=O)(=O)c2cc([N+](=O)[O-])ccc2N(CCOS(C)(=O)=O)CCOS(C)(=O)=O)CC1
EFS delay (T-C) (NSG mice, sample BD PDX; intraperitoneal, 25 mg/kg weekly x3; baseline: vehicle): 1.6 days

COc1ccc(-c2cc(C(F)(F)F)c3c(N)c(C(=O)N4C5CCCC4COC5)sc3n2)cc1
selectivity index (Mycobacterium tuberculosis; H37Rv wild type; baseline: HepG2 IC50 over M. tuberculosis IC90): < 1

COc1c(CCC[P+](c2ccccc2)(c2ccccc2)c2ccccc2)cc2c(c1OC)OCO2.[I-]
LC50 (NCI-H460; SRB): -4.71 log M

CC1(C)C(C(=O)c2cn(CCCCCF)c3ccccc23)C1(C)C
ED50 (spontaneous locomotor activity, mouse tetrad; ICR mouse male; intravenous): 0.9 µmol/kg

O=P1(N(CCCl)CCCl)NC(OO)CCO1 (stereo not shown)
IC50 (HD-MB03; baseline: DMSO): inactive

Nc1ncnc2c1ncn2[C@@H]1O[C@@H]2COP(=O)(O)O[C@H]3[C@@H](O)[C@H](n4cnc5c(=O)[nH]cnc54)O[C@@H]3COP(=O)(O)O[C@H]2[C@H]1O
pathway fold enrichment (HFF-1; RNA sequencing, item: Reactome R-HSA-5083635; downregulated pathway; baseline: Zika virus alone): 9.37

CC[C@H](C)[C@H](NC(=O)[C@H](C)NC(=O)[C@H](CCCCN)NC(=O)[C@H](CC(C)C)NC(=O)[C@H](C)NC(=O)[C@@H](NC(=O)[C@H](Cc1c[nH]cn1)NC(=O)[C@H](CC(C)C)NC(=O)[C@@H](NC(=O)[C@@H](NC(=O)[C@H](CCCCN)NC(=O)[C@H](C)NC(=O)[C@H](C)NC(=O)[C@H](CO)NC(=O)[C@H](CCCCN)NC(=O)[C@H](Cc1ccccc1)NC(=O)[C@@H](NC(=O)[C@H](CCCCN)NC(=O)[C@H](CC(C)C)NC(=O)[C@H](Cc1ccccc1)NC(=O)[C@H](CO)NC(=O)[C@H](CCCCN)NC(=O)[C@H](Cc1c[nH]c2ccccc12)NC(=O)[C@H](CCCCN)NC(C)=O)[C@@H](C)O)[C@@H](C)O)C(C)C)[C@@H](C)O)C(=O)N[C@@H](CO)C(=O)N[C@@H](CO)C(N)=O
MBC90 (Streptococcus pyogenes; erythromycin-resistant; 19 strains): 64 µg/mL (≈ 21.8 µM)

COC(=O)c1ccc(/C(=C2/N=C(C)C=C2C)c2c(C)cc(C)n2B(F)F)cc1
viability reduction (Schistosoma mansoni; microscopic viability scoring; newly transformed schistosomula; 10 µM, 72 h, prescreen): 27.6%

O=c1c2cc(Cl)ccc2[nH]c(=S)n1Cc1ccncc1
MIC90 (Mycobacterium tuberculosis; PptT conditional knockdown): > 100 µM

CC[C@@H](C)[C@@H](NC(=O)[C@@H](Cc1ccc(O)cc1)NC(=O)[C@H]1CCCN1C(=O)[C@@H](CCCNC(=N)N)NC(=O)[C@H](N)Cc1c[nH]cn1)C(=O)N[C@H](C)C(=O)N[C@H](Cc1c[nH]cn1)C(=O)N[C@H](CCCNC(=N)N)C(=O)N[C@H](CCCCNC(=O)c1cccc(S(=O)(=O)F)c1)C(=O)N[C@H](Cc1ccc(O)cc1)C(=O)N[C@H](CO)C(=O)N[C@H](Cc1ccccc1)C(N)=O
IFN-γ+ CD4+ T cells (ex vivo flow cytometry; MC-38 tumour-bearing mice, tumour; 1.3 mg/kg; baseline: CD4+ T cells): 5.06% and 4.77% and 5.27% and 4.07%

CCOC(=O)CC1(C(F)(F)F)N=C(NCc2ccccc2)C(=O)O1 (stereo not shown)
viability reduction (Schistosoma mansoni; microscopic viability scoring; newly transformed schistosomula; 10 µM, 72 h, prescreen): 13.8%

CNC(=O)Oc1cccc2c1OC(C)(C)C2O (stereo not shown)
selectivity ratio (SH-SY5Y; neurite outgrowth, phase-contrast imaging; nominal concentration; baseline: IC10 over EC10): 36.6

COc1ccc(-c2cc(C(F)(F)F)c3c(N)c(C(=O)Nc4ccc(C)cc4C)sc3n2)cc1
IC50 (Mycobacterium tuberculosis; growth inhibition; H37Rv LepB under-expressing): 0.55 ± 0.3 µM

Oc1ccc(-c2cccc(Cl)c2)cc1Cl
IC25 (gap junction, rat; gap junctional communication, scrape loading dye transfer; WB-F344 rat liver epithelial; 1 h): 43 µM

COc1ccc(-n2nc(C(C)=O)s/c2=N\N=C(/C)c2ccc(NC(C)=O)cc2)cc1
viability (HepG2; 1.25 µM): 5.18%

COc1cc(CCC[P+](c2ccccc2)(c2ccccc2)c2ccccc2)c(OC)c2c1OCO2.[I-]
GI50 (SF-539; SRB): -5.64 log M

CCC(NC(=O)c1sc2nc(-c3ccc(OC)cc3)cc(C(F)(F)F)c2c1N)c1ccccc1 (stereo not shown)
IC50 (Mycobacterium tuberculosis; growth inhibition; H37Rv LepB under-expressing): 0.72 ± 0.2 µM

CC[C@H](C)[C@@H]1NC(=O)[C@@H]2CCCN2C(=O)[C@H](CC(C)C)NC(=O)[C@H](CC(C)C)NC(=O)CNC(=O)[C@@H](NC(=O)[C@@H](NC(=O)[C@H](CC(=O)O)NC(=O)CNC(=O)[C@@H](NC(=O)[C@H](C)NC(=O)CNC(=O)[C@H](CCCCN)NC(=O)[C@H](CC(C)C)NC(=O)[C@H](CC(C)C)NC(=O)[C@H](CCCCN)NC(=O)CNC(=O)[C@@H](NC(=O)[C@@H](N)CC(C)C)C(C)C)C(C)C)C(C)C)CSSC[C@@H](C(=O)O)NC1=O
log2 fold change (RNA-seq, item: Samsn1; mouse, traumatic brain injury model, frontal cortex and hippocampus; dose not given; baseline: TBI alone): -3.4

COc1ccc(-c2cc(C(F)(F)F)c3c(N)c(C(=O)Nc4cccc(C)c4F)sc3n2)cc1
IC50 (Mycobacterium tuberculosis; growth inhibition; H37Rv LepB under-expressing): > 100 µM

CS(=O)(=O)CCCn1c(Cn2c(=O)n(CC(F)(F)F)c3ccncc32)cc2cc(Cl)ccc21
LS mean viral load change (respiratory syncytial virus; RT-qPCR; hospitalized infants 1-24 months, nasal swab; oral, 9, 6 or 5 mg/kg daily, day 14, high dose by age cohort; baseline: baseline): -5.4 log10 copies/mL

Fc1ccc(F)c(-c2ccc3ncccc3c2)c1
viability reduction (Schistosoma mansoni; microscopic viability scoring; newly transformed schistosomula; 10 µM, 72 h, prescreen): 18.8%

CCCCC1(CCCC)CN(c2ccccc2)c2cc(SC)c(OCC(=O)N[C@@H](C(=O)NCC(=O)O)c3ccccc3)cc2S(=O)(=O)C1
serum LDL-C (item: LDL cholesterol; human, serum; 15 mg once daily, day 14): 77.4 mg/dL

C[C@H]1CN(c2n[nH]c3nc(N[C@H]4CC[C@H](NS(=O)(=O)CCC(F)(F)F)CC4)ncc23)CCO1
IC50 (14-3-3 protein epsilon (Homo sapiens, UniProt P62258); biochemical): ≥ 20 µM

CC(/N=N/c1ccc(F)cc1)=C1SCCCS1
viability reduction (Schistosoma mansoni; microscopic viability scoring; newly transformed schistosomula; 10 µM, 72 h, prescreen): 100%

Cc1c2c(nn1C)CSCc1cc(n(C)n1)CSc1cc(c3ccccc3c1)OCCCc1c(C(=O)O)n(C)c3c-2c(Cl)ccc13
log2 fold change (Staphylococcus aureus; label-free quantitative proteomics, item: SAOUHSC_01450 protein; SA113; concentration not given; baseline: untreated control): -5.3

Repeated from above:
Fc1ccc(F)c(-c2ccc3ncccc3c2)c1
viability reduction (Schistosoma mansoni; microscopic viability scoring; newly transformed schistosomula; 10 µM, 72 h, prescreen): 18.8%

CCCCC1(CCCC)CN(c2ccccc2)c2cc(SC)c(OCC(=O)N[C@@H](C(=O)NCC(=O)O)c3ccccc3)cc2S(=O)(=O)C1
serum LDL-C (item: LDL cholesterol; human, serum; 15 mg once daily, day 14): 77.4 mg/dL
